Measurements pooled from the literature.
Every numbered part comes from another study and shows a few of its results, in no order.

Set 1 — method: protein-binding microarray; form: double-stranded DNA, one strand shown; sample: in vitro; tested at: 2200 nM top; setting: 60-bp whole probe; added: salmon DNA 0.4 mg/ml; baseline: random background probes; reading: higher = stronger binding; constant ends, left off below: GCCTAGCAC … GTCTTGATTCGCTTGACGCTGCTG
Target: Interferon regulatory factor 7, full length, phosphomimetic (IRF7, Homo sapiens, UniProt Q92985, residues 1-503, S471D/S472D/S475D/S476D/S477D/S483D/S484D/S487D)
Chain of UniProt Q92985 (whole entry, unmodified, looked up): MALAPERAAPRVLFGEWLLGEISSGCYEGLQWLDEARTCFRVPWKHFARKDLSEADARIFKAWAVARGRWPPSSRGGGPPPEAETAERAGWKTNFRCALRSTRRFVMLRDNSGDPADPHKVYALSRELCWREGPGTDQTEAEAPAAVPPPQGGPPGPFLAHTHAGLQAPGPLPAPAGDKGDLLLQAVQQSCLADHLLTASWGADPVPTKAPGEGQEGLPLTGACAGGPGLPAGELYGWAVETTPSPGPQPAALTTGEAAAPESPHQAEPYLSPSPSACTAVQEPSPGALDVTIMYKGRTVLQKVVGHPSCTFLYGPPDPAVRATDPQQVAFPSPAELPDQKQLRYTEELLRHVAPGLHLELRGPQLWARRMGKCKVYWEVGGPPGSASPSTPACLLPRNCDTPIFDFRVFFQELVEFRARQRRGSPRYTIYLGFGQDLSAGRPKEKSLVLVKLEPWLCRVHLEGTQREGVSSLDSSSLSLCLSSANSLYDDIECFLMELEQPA
Oligonucleotide	fitted relative affinity [z-score]
GACGAACTGGGGTATCGCGACGTGCTA	-0.0455
GACGGTTTCGGCTTCGGGACGTGCTAG	5.46
CTAGGTCTCCTACTGCTTTAGTGCTAG	0.596
GACGGACCGGACACTGGGGACGTGCTA	-1.03
TTAGATCTCAGTCTCAATTAGTGCTAG	-0.0648
TCATGTCTGGGCTTTTTCACTGTGCTA	0.46
TCAATTCTCTTCTTGCAACTGTGCTAG	1.58
GACGATATCGGGTTTCGAGAGGTGCTA	1.04
TCAATTCTGCTTTGCAAACTGTGCTAG	0.937
AGACCATCCTGTATGGATGTGTGCTAG	-0.000221
TTAGGTATCGACTTTCGTTTAGTGCTA	5.62
TCAATAATGGATATATAACTGTGCTAG	-0.245
GCTGGGTTTTCTTGGCACAGGTGCTAG	0.0358
GAAGGACTGGGGACTGGGGACGTGCTA	-0.795
GACGGACTGCTACTGCTCACGTGCTAG	-0.135
GACGGCTTCCTTTCCCTGACGTGCTAG	1.46
GACGGAGTGCTTTTCCTGACGTGCTAG	0.798
TCACATATAATTTTGTCATCGTGCTAG	0.814
GACGGTATCGGGTTTCCGGACGTGCTA	0.651
GTCAGCGGTGGTGTTCGGTGGTGCTAG	-0.753
TCACTTATAAATAGCACACTGTGCTAG	0.0692
ATATATGTATATATGTGTATGTGCTAG	1.07
TCAGCTTTAGTCATTCACACTGTGCTA	0.362
TTGGGTTTCGGGTATCGGTTAGTGCTA	5.1
TTAGGTCTCCTTTTCCTCTAGTGCTAG	1.63

Set 2 — method: RNA Bind-n-Seq; form: RNA; sample: in vitro; tested at: 365 nM; baseline: no-protein control; reading: higher = stronger binding
Target: RNA binding protein fox-1 homolog 2, RRM domain, GST-SBP tag (RBFOX2, Homo sapiens, UniProt O43251-10, residues 100-194)
Setting: natural RNA segment, single round, ends assumed
Constant ends, left off below: GGGAGUUCUACAGUCCGACGAUC … UGGAAUUCUCGGGUGCCAA
Construct (chain): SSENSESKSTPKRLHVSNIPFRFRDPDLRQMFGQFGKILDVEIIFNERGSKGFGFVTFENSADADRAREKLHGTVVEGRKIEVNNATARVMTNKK
Oligonucleotide	RBNS enrichment (R)
AGCAAGGAUUUCUGAACACUAAAUCCAACGAGCCUUCACAGGGAAAGGAUAUUUGAGCAGAAUUCUUCAGAAUGAAUAGGAGUUAGCCAAGCAGAAAAGGCAAGAAGAGU	1.86
CUCGGCAUCUCUCGUAUGUGGCAUAUUGCUUUUGCCACUUUCCUAUCCAGCAGACAUCAAAGCAAAACUAAAAGGUAGAUAUCUGGAAUGAAUGUAUAUGUUGUAAUUGA	0.875
UGCCAAACAUUUUAUUAAGAAAGUAAAGCCCAGAUUUGAAUGGGGGUUUUCCCUAGGCCUUAUAGUAUAGAGGCAUUUGUAAUAUGGAGAAAAUAAUUUUUCUCAUUUAA	2.2
CACAGGUGCUUAAAGGACACUUUCAGAAGAAGCUGAAGGCCUUGAGGUCUGCCCACCCAGCUGAUCUCGGAGUCCUGGCCCCAGUCCAUGUGUAGCUCUAAGAACAUGAA	0.449
CUUUUUUUUUCUUUUGAGACAGGGUCUUGAUCCGUCGCCCAGGCGGGAGUUGCAGUAGCAUGAUCAGGACUCACUGCAGCCUCUAUCUCCCAGGCUCAAGUAAUCCUCCC	3.89
CUGCCCACAGCUUCCUACAUCGAACAUGUCCAUGGUCCGAGAUGCCAUUUCAAACAGUUCCAGUGACCUACUCCUUUUAAGUUGGACACCGAGGCCAAAGGCUGCCUCAG	0.471
CCUCGGACCCGUUCCCAGGAGGUGCAGGGGCCCAGCAAUAAACGGCGAAAGGGGCCUUGGCUCUUGCCCUGUGGCAGUGACCUUGGGGUCCGUACUAUGCCCAGGUGUCA	0.28
GCUAAGUUGGAUUUCGUGCUGCUGUAAAUUGGAACUGUCGACUCUAAGUGCCUUUACUUAGGAAAAGCCAGUACCACAUCAUGGCUUCCUUCUUCACUCAAAGGCUGCUU	0.214
GUGCUCCUGCACAGGCUUCUGCACCUCCAAGCACAGCUGAUCUGAUCCAAGGCUGUUGGGCCUCUCAAGAUUUGAGAACCACAAAGCAGGAGGUGAGCAUAUUCUCUUGG	0.372
GGAACGAGGCAUCUGGAGCUUCCUACUCUCCAGUUUCUCUGUGGAAAUAAAACAUGACUCUUUGUUUCCCUGAGACUCUCUUGACUCCUUAUUCAAUACGACCCUGCUGA	0.889
GGUGGCAAAGGUAUAAUGUAUCCGUGUUUUGUUUGUGAAUUUUUUAUUGAACCCACCCACUCAGAUGCUAAGUCAACCCUGACCUCUGCCCCAUCCACACCAUUCUCCAU	0.66
CCAACAGGCUUUAAAACGUCCCUGAACGUACAGUAUUCUAAGUUACCGUGAGCCUUCACAAACAUCAUUCUCGAGGUUUUUUGCUUUUCUCCCUGCUUCAGUCUCCAGAG	0.652

Set 3 — method: EMSA with sequencing; form: double-stranded DNA, one strand shown; sample: in vitro; tested at: 10 and 20 nM; baseline: negative control set to 0; reading: higher = stronger binding
Target: Hepatocyte nuclear factor 3-alpha (Foxa1, Mus musculus, UniProt P35582, residues 1-468, full length assumed)
Setting: whole designed probe, mean of two concentrations, ends assumed
Constant ends, left off below: GTGAGCGGTGCCCATTGATGGGGAAC … TTTCACTGGGATCGTGGGGAC
Residues (chain): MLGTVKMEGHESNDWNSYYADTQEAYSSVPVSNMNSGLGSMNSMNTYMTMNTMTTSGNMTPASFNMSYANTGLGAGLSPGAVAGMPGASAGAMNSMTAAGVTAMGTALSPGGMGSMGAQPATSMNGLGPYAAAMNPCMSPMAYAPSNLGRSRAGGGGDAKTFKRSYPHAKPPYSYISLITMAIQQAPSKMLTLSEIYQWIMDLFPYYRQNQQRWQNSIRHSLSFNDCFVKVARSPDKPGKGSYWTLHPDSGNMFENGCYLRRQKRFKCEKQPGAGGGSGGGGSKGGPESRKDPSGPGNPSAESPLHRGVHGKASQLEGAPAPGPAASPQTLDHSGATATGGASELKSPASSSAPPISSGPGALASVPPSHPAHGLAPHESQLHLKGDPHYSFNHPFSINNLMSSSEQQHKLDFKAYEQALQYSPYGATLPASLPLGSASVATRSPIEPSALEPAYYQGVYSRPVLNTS
Oligonucleotide	normalised bound fraction [ratio]
TATTTAATCTAGGCTACTGTGAATAGGAGAAAAATAGTTGCTAAAAGATGGCAGAGTTCACTCAATCCAATGAAATTTTAAAACATCTCAAAGTAAACAAAGCCAGAGAGTTCATCAGCTAATGCTGCGTCATAAGGTTATCTGCATATTAGGTGATCCCAGTGGCTACAGAACTGACTTTCAGAAACACTAG	0.476
TAAATGCTAAAGCTGAAATGAACAGGGATGGCAGCTGCTCAGGGAACAATGAAGTGAAGTCAATCCTGAATTCCAACTTGAAAATGTTTAAAGTAATCTAGCAGGATCTAGGAGGTCATCTAGGAGGTCATTTTAAGGAAATGATAAGGAAAGACAAAAGGAAAGAAGAGCAAAACAGCTTTAGAAGTTAGTT	-0.051
CCCTCATCCTGGGTGTCGGGGTGGGAGGTGTTCTCATCATGAATGGGAGGCGTACCCAGATCGTGACTCACCATTTTTTAACCAAACCAGAGTGTAAACAAATGGCTGTGTGTCACACCATAATCGACATAGCAAGATATGATACATGCCAGGAGAGAAAAAGAAAGTGCTGATGGAAAAATAATCTCATTAG	0.315
CACTCAACAGAAGGTTCTTCAATCCTCAAACTTTATCCAGTGAAAGCACTAATCCTGATATTTCTCTAGTTTCTTTGATGGCATGACCCCTTGTGTAATTTTTGATAGAGATTACACTGACAGTTGTGTAAGCCAGCTGGATCCCAGCCAGGGACAAAGGAATTTATAAAAGGCCAGGAATAGAGAATCCAAG	-0.0403
ATGAGTGTGCATATAATTTGACAGTGACCTCTTGCACTAGACTAATCAGTAAGACTGACTTTCCCTGATGTTGCTGTCAAGGAAGATGCTTCCTTGTTTACTCATTCATGGGCATTGCTCTTGAAAAATGTATAACCATGTGAGTCATTTCTATGCTTCAGTGTAAAACAAGAATTTCCCCCCAAATTTTAGA	0.258
AACAATTTAATTCCATTTTTATCAATGATATCTTCTTCTATGGAAGAAAATTAAGATAATTCAATGTTTTCCTACATCATTTAATATAAGGTTAAATTACTCTTGGAAACTTCCATTCTTTATTGCTCCTCAACAATAGCAACCACAAAAATTCCCATAATTCTCTCTTTAAAGATCAACCAAAATTAAGGAA	-0.0143
CTTTAAGGATTTCAATGTTATAAATAAAAGCTAAGTCCACTGTCATTCATTTTTTATGTCCTACAACAAGGTTACAAAATTAAAATCATATAAAGTAAACATGAAGAGGAAAAGCTTGATCTACTCAATGCATCCACTTCTTCCCAGTTCTCCCCATCCTCTGCCAAGTTGTACCAGGGAGAGTGAAGGAGAA	0.437
ACCCTGTGCACCTTGTCTACGTCAGGGTGCTGTTGAAAGATTATTGAGGCCATGTCTGTAGGAAAGCCAGAGCTTCAAGAACAACAAAAACAATGTAAACAGGACTCCTTTCCTATTCTATTAATTCTATTGAAATTATTGAAAAATAATTGTCCTTGCTTTATTTTAAAATTACATGTATTGGTTTTCATCA	0.197

Set 4 — method: protein binding microarray; form: double-stranded DNA, one strand shown; sample: in vitro; tested at: not given; baseline: not given; reading: higher = stronger binding
Target: Histone acetyltransferase KAT6A, winged helix 1, GST fusion (KAT6A, Homo sapiens, UniProt Q92794, residues 1-85)
Setting: 8-mer, flanks averaged, mean of 2 arrays, mostly near background
Target sequence (chain): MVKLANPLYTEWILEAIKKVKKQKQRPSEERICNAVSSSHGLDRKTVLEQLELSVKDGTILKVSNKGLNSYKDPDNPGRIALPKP
Oligonucleotide	E-score
GTTGGAAA	-0.156
CAATTACG	0.13
CGACATAA	0.0496
AACTTTGG	-0.275
TACCGCTA	0.301
AATCGAGC	-0.0708
AACTCATA	-0.171
AATTCAGG	-0.0711
CTACTTTA	-0.091
CGATACGA	-0.116
CTCAGGTC	0.0882
TAATATCA	-0.0874
TCCATTCA	-0.321
CCATACTC	-0.102
TACCAGGA	-0.0522
GATCATAC	0.00596
GGAACCCC	0.183
GGTTTCCA	-0.173
AATTAGCC	0.0119
ATCGCTTG	0.096
CAAAGGTG	-0.0807
AACCAGGA	0.00688
ATGTTATC	-0.0796

A few entries again (set 1):
Oligonucleotide	fitted relative affinity [z-score]
TTAGGTATCGACTTTCGTTTAGTGCTA	5.62
TCAGCTTTAGTCATTCACACTGTGCTA	0.362
TCACTTATAAATAGCACACTGTGCTAG	0.0692
GACGAACTGGGGTATCGCGACGTGCTA	-0.0455
GACGGAGTGCTTTTCCTGACGTGCTAG	0.798
TCACATATAATTTTGTCATCGTGCTAG	0.814
GCTGGGTTTTCTTGGCACAGGTGCTAG	0.0358
TTAGATCTCAGTCTCAATTAGTGCTAG	-0.0648
GACGGACTGCTACTGCTCACGTGCTAG	-0.135
GACGGCTTCCTTTCCCTGACGTGCTAG	1.46
TCAATAATGGATATATAACTGTGCTAG	-0.245
